Measured values collected from several papers.
Values joined by “and” are separate records of one study, mostly repeats; a detail may differ. ± marks the error that the study gave.
Chromobox protein homolog 8: Chromobox protein homolog 8 (Homo sapiens, UniProt Q9HC52)
USP5: Ubiquitin carboxyl-terminal hydrolase 5 (USP5, Homo sapiens, UniProt P45974)
CASP9: Caspase-9 (CASP9, Homo sapiens, UniProt P55211)
CASP4: Caspase-4 (CASP4, Homo sapiens, UniProt P49662)

`NS(=O)(=O)c1nnc(N2C(=O)c3cccc4c(N5CCOCC5)ccc(c34)C2=O)s1` gave a fluorescence turn-on of 4 fold (CA2 (Homo sapiens, UniProt P00918); binding; 2 µM, pH 7.2; reference: without protein).
`CCCC[C@H](NC(=O)COCCOCCNC(=O)CN1CCN(CC(=O)O)CCN(CC(=O)O)CC1)C(=O)N[C@H]1CC(=O)NCCCC[C@@H](C(N)=O)NC(=O)[C@H](Cc2c[nH]c3ccccc23)NC(=O)[C@H](CCCNC(=N)N)NC(=O)[C@@H](Cc2ccccc2)NC(=O)[C@H](Cc2c[nH]cn2)NC1=O` [technetium-99m labelled] has a tissue uptake of 0.83 ± 0.67 %ID (C57 mouse, intestine; intravenous, 0.037 MBq, 24 h).
For `CC(C)[C@H](NC(=O)[C@H](Cc1ccccc1)NC(=O)c1ccc(C(C)(C)C)cc1)C(=O)N[C@@H](Cc1c[nH]cn1)C(=O)N[C@@H](CCCCN(C)C1CC2CCC1C2)C(=O)N[C@@H](CO)C(N)=O` (stereo partly shown), the selectivity ratio was > 39 (Chromobox protein homolog 8; TR-FRET displacement; reference: IC50 CBX7 over IC50 CBX8).
`CC(C)Oc1cc(Cl)ccc1CNc1cc(-c2ccccc2)nc2ncnn12` has a cAMP luminescence of 28800 a.u. and 38200 a.u. and 43100 a.u. and 38600 a.u. (GPR3 (Homo sapiens, UniProt P46089, R152A); cAMP level, cAMP GloSensor; 10 nM; higher = more cAMP).
For `CC(=O)N[C@@H](CCCNC(=N)N)C(=O)N[C@H](C(=O)N[C@@H](CCCCN)C(=O)N[C@@H](CO)C(=O)N[C@@H](CCCNC(=N)N)C(=O)N[C@H](C(=O)N[C@@H](Cc1c[nH]c2ccccc12)C(=O)N[C@@H](C)C(=O)NCC(N)=O)[C@@H](C)OP(=O)(O)O)[C@@H](C)O`, the kon was 1.55e+06 M⁻¹ s⁻¹ (14-3-3 protein epsilon (Homo sapiens, UniProt P62258); binding, SPR).
`c1ccc(-c2nc3ccccc3[nH]2)cc1` has an inhibition of 26% (USP5; enzyme activity, inhibitor; 17 µM).
Under “isoTOP-ABPP competition ratio”, `CCCCCC=CC=C1C(=O)C=CC1CC=CCCCC(=O)O` (stereo not shown) is recorded as 1.1 (Adenosine kinase (ADK, Homo sapiens, UniProt P55263); competitive isoTOP-ABPP; Ramos soluble proteome; 100 µM, with: iodoacetamide probe; reference: DMSO over compound-treated, higher = stronger cysteine blockade).
The specific binding of `O=C1c2sc(-c3ccc(N4CCC(CO)CC4)nc3F)nc2CCN1c1cccnc1` is reported as 0.076 nM (TAR DNA-binding protein 43, aggregated (TARDBP, Homo sapiens, UniProt Q13148); radioligand binding; control brain sarkosyl-insoluble extract; 13.55 nM).
With `CN(/N=C/c1ccc(F)cc1C(=O)NO)c1nc(-c2ccccc2Cl)cs1` the percent effect was 68% and 69.2% and 67.3% (DHODH (Homo sapiens, UniProt Q02127); enzyme activity, inhibitor, DCIP colorimetric; 4.57 nM).
`CC(=O)N[C@@H](CC(=O)O)C(=O)N[C@@H](CC(C)C)C(=O)N[C@@H](C)C(=O)N[C@@H](CC(=O)O)C(=O)COC(=O)c1c(C)cccc1C` has a kinact/KI of 21800 M⁻¹ s⁻¹ (CASP9; enzyme activity, inhibitor).
Under “normalised MST signal”, `N=C(N)NCCS(=O)(=O)O` is recorded as 0.00155 (SLC6A6 (Homo sapiens, UniProt P31641, Y138A); binding, microscale thermophoresis; 1.95 µM, room temperature, with: 50 nM labelled protein; higher = more binding).
`CC(=O)N[C@@H](CC(C)C)C(=O)N[C@@H](CCC(N)=O)C(=O)N[C@@H](CCC(=O)O)C(=O)N[C@@H](CC(=O)O)C(=O)COC(=O)c1c(C)cccc1C` has a kinact/KI of 39300 M⁻¹ s⁻¹ (CASP9; enzyme activity, inhibitor).
With `CN(Cc1cc(C2CC2)on1)C(=O)c1cccc(-c2ccc3c(c2)CCO3)c1` the reaction rate was 0.00337 a.u. (ACSS2 (Homo sapiens, UniProt Q9NR19); enzyme activity, inhibitor, coupled pyrophosphate; 3.13 µM; higher is more activity).
`CC(=O)N[C@@H](CC(=O)O)C(=O)N[C@H](C(=O)N[C@@H](C)C(=O)N[C@@H](CC(=O)O)C(=O)COC(=O)c1c(C)cccc1C)[C@@H](C)OCc1ccccc1` has a kinact/KI of 1800 M⁻¹ s⁻¹ (CASP4; enzyme activity, inhibitor).
`CCc1cc(O)cc2c(/C=N/NC(=N)NCCc3ccc(Cl)cc3)c[nH]c12` has an Emax of 66.3 ± 2.93% (RXFP4 (Homo sapiens, UniProt Q8TDU9, T295A); HEK-293T; reference: wild type).
For `O=C(CCC(F)(F)F)Nc1ccc(C2CCCCC2)cc1`, the hepatic clearance was 18 mL/min/kg (hepatocyte stability; cryopreserved human hepatocytes; 1 µM).
The selectivity ratio of `CC(C)C[C@H](NC(=O)[C@@H](NC(=O)[C@H](Cc1ccccc1)NC(=O)c1ccc(C(C)(C)C)cc1)C(C)C)C(=O)N[C@@H](CCCCN(C)C1CC2CCC1C2)C(=O)N[C@@H](CO)C(N)=O` (stereo partly shown) is reported as 21 (Chromobox protein homolog 8; TR-FRET displacement; reference: IC50 CBX7 over IC50 CBX8).
For `O=C(NCCOc1ccc(F)cc1)c1ccc([C@H]2[C@@H](F)[C@@H](F)C[C@@H](F)[C@H]2F)cc1`, the hepatic clearance was 12 mL/min/kg (liver microsome stability; cynomolgus liver microsomes; 1 µM).
With `OCc1nnc2n1N=C(c1ccc(Cl)cc1)CS2` the inhibition was 7% (USP5; enzyme activity, inhibitor; 17 µM).
For `Cc1nc2ccc(S(=O)(=O)n3nc(SCc4ccc(Cl)cc4)nc3N)cc2o1`, “probe labeling increase” read 2.9 fold (Lysophospholipase-like protein 1 (Mus musculus, UniProt Q3UFF7); enzyme activity, activator, gel-based ABPP; purified protein; concentration not given, with: FP-rhodamine; reference: DMSO).
For `CC(=O)N[C@@H](CC(C)C)C(=O)N[C@H](C(=O)N[C@@H](Cc1ccc(O)cc1)C(=O)N[C@@H](CC(=O)O)C(=O)COC(=O)c1c(C)cccc1C)C(C)(C)C`, the kinact/KI was 300 M⁻¹ s⁻¹ (CASP4; enzyme activity, inhibitor).
`CC1(C)C[C@@H](Nc2cccc(-c3sc(C(=O)O)c(OCC(=O)O)c3Cl)c2)CCN1S(=O)(=O)Cc1cccc(NC(=O)CN2CCC(c3ccc4c(c3)oc(=O)n4C3CCC(=O)NC3=O)CC2)c1` (stereo partly shown) — result for “BLI binding response”: 0.388 a.u. and 0.455 a.u. (PTPN2 (Homo sapiens, UniProt P17706); degrader, bio-layer interferometry; 125 nM, biotinylated protein immobilised; higher = more binding).
`CC1CCC[S+](c2cc(O)ccc2O)C1` (stereo not shown) gave an inhibition of 91% (USP5; enzyme activity, inhibitor; 17 µM).
`CC(=O)N[C@@H](CCCCN)C(=O)N[C@H](C(=O)N[C@@H](Cc1ccc(O)cc1)C(=O)N[C@@H](Cc1ccc(O)cc1)C(=O)N[C@@H](CCCNC(=N)N)C(=O)N[C@@H](Cc1ccc(O)cc1)C(=O)N[C@@H](CC(N)=O)C(=O)NCC(=O)N[C@@H](CCCCN)C(=O)N[C@H](C(=O)N[C@@H](Cc1c[nH]c2ccccc12)C(=O)N[C@@H](Cc1c[nH]c2ccccc12)C(=O)N[C@@H](CCCNC(=N)N)C(=O)O)C(C)C)C(C)C` has a β-strand content of 47% (Insulin (INS, Bos taurus, UniProt P01317); circular dichroism; 800 min, final stage after heating, with: INS 350 µM).
`CC(=O)N[C@@H](CC(C)C)C(=O)N[C@@H](CCC(N)=O)C(=O)N[C@@H](CO)C(=O)N[C@@H](CC(=O)O)C(=O)COC(=O)c1c(C)cccc1C` has a kobs/[I] of 36400 M⁻¹ s⁻¹ (CASP4; inhibitor; recombinant enzyme).
`CCOC(=O)C(C(=O)c1ccccc1)C1(O)C(=O)c2ccccc2C1=O` (stereo not shown) gave an inhibition of 70% (USP5; enzyme activity, inhibitor; 17 µM).
With `O=C(O)C(COP(=O)(O)O)OP(=O)(O)O` (stereo not shown) the enzyme activity was 73.7 and 63.1 and 80.2 and 61.1 (Phosphoglycerate mutase 1 (Homo sapiens, UniProt P18669); 0.0016 mM, unit not given; reference: activity at 1 mM set to 100).
`CCCCCC(O)/C=C/C=O` (stereo not shown) — result for “isoTOP-ABPP competition ratio”: 1.6 (Tubulin-specific chaperone D (Homo sapiens, UniProt Q9BTW9); competitive isoTOP-ABPP, measured: TBCD cysteine peptide; Ramos soluble proteome; 100 µM, with: iodoacetamide probe; reference: DMSO over compound-treated, higher = stronger cysteine blockade).
`CC(=O)N[C@@H](C(=O)N[C@@H](CCCC(=O)O)C(=O)N[C@@H](CCC1CCCCC1)C(=O)N[C@@H](CC(=O)O)C(=O)COC(=O)c1c(C)cccc1C)C1CCCCC1` has a kobs/[I] of 1200 M⁻¹ s⁻¹ (CASP4; inhibitor; recombinant enzyme).
`CC[C@H](C)[C@H](NC(=O)[C@H](Cc1ccccc1)NC(=O)[C@H](CCC(=O)O)NC(=O)[C@H](CCCCN)NC(=O)[C@H](C)NC(=O)[C@H](C)NC(=O)[C@H](CCC(N)=O)NC(=O)CNC(=O)[C@H](CCC(=O)O)NC(=O)[C@H](CC(C)C)NC(=O)[C@H](Cc1ccc(O)cc1)NC(=O)C(C)(C)NC(=O)[C@H](CO)NC(=O)C(C)(C)NC(=O)[C@H](CC(=O)O)NC(=O)[C@H](CO)NC(=O)[C@@H](NC(=O)[C@H](Cc1ccccc1)NC(=O)[C@@H](NC(=O)CNC(=O)[C@H](CCC(=O)O)NC(=O)[C@H](C)NC(=O)[C@@H](N)Cc1c[nH]cn1)[C@@H](C)O)[C@@H](C)O)C(=O)N[C@@H](C)C(=O)N[C@@H](Cc1c[nH]c2ccccc12)C(=O)N[C@@H](CC(C)C)C(=O)N[C@H](C(=O)N[C@@H](CCCCN)C(=O)NCC(=O)N[C@@H](CCCNC(=N)N)C(N)=O)C(C)C` has an efficacy of 94 ± 4% (GLP1R (Homo sapiens, UniProt P43220); β-arrestin-1 recruitment, agonist, BRET; reference: GLP-1).
For `CCN(CC)C(CO)c1cccc2c(C)c(C)oc12` (stereo not shown), the fold change was 0.729 and 0.933 and 0.977 and 0.964 and 0.66 and 0.978 (LPAR1 (Homo sapiens, UniProt Q92633, W210A); G-protein dissociation, agonist, NanoBiT; HEK-293T; 10 nM, W210A mutant; reference: baseline luminescence).

For quick reference, copied from above:
Under “normalised MST signal”, `N=C(N)NCCS(=O)(=O)O` is recorded as 0.00155 (SLC6A6 (Homo sapiens, UniProt P31641, Y138A); binding, microscale thermophoresis; 1.95 µM, room temperature, with: 50 nM labelled protein; higher = more binding).
`CC(=O)N[C@@H](CC(C)C)C(=O)N[C@@H](CCC(N)=O)C(=O)N[C@@H](CCC(=O)O)C(=O)N[C@@H](CC(=O)O)C(=O)COC(=O)c1c(C)cccc1C` has a kinact/KI of 39300 M⁻¹ s⁻¹ (CASP9; enzyme activity, inhibitor).
